Results from different studies.
Compare with care: the assays were run in different laboratories. ± gives the spread as reported.

SMILES	assay	test system	conditions	quantity	result
C1=[N+]2CCCC[N+]3=Cc4ccc5[n]4[Au-]23[n]2c1ccc2-c1nc2ccccc2nc1-5.F[P-](F)(F)(F)(F)F		female athymic nude mice	intraperitoneal, 100 to 400 mg/kg/dose, 17 d	survival	100%
COc1cc(NC(=O)C(=O)c2c(C)n(Cc3ccc(Cl)cc3)c3ccc(C)cc23)ccn1		male cynomolgus monkey hepatocytes	10 µM, 90 min	number of metabolites	13
CC(C)C[C@@H](NC(=O)[C@@H](CCCNC(=N)N)NC(=O)[C@@H](Cc1c[nH]cn1)NC(=O)[C@@H](Cc1c[nH]c2ccccc12)NC(=O)[C@@H](Cc1c[nH]cn1)NC(=O)[C@@H](Cc1ccccc1)NC(=O)[C@H](NC(=O)[C@@H](Cc1ccc(O)cc1)NC(=O)CNC(=O)CNC(=O)CCOCCOCCOCCNC(=O)CN1CCN(CC(=O)O)CCN(CC(=O)O)CC1)[C@H](C)O)C(=O)N[C@H](CC(N)=O)C(=O)N1CCC[C@@H]1C(=O)O [gallium-68 labelled]		C57BL/6 mice, B16-F10 tumour	60 min post injection, together with: GP12 blocking	tumour to blood ratio	0.53 ± 0.12
CSCC[C@@H]1NC(=O)[C@@H]2CSSC[C@H](NC(=O)[C@H](CO)NC(=O)[C@H](C)N)C(=O)N[C@@H](CCCNC(=N)N)C(=O)N[C@@H]([C@@H](C)O)C(=O)N3CCC[C@H]3C(=O)N[C@@H](CCCCN)C(=O)N[C@@H](CC(=O)O)C(=O)N[C@H]3CSSC[C@H](NC(=O)[C@H](CCCCN)NC(=O)[C@H](CCCNC(=N)N)NC(=O)[C@H](CC(N)=O)NC1=O)C(=O)N[C@@H](CCCCN)C(=O)N[C@H]1CSSC[C@H](NC(=O)[C@@H]4CCCN4C(=O)[C@H](CC(=O)O)NC(=O)[C@H](C)NC3=O)C(=O)N[C@@H](C)C(=O)N[C@@H](CCCCN)C(=O)N[C@@H](CCC(=O)O)C(=O)N[C@@H]([C@@H](C)O)C(=O)NCC(=O)N[C@@H](CSSC[C@@H](C(N)=O)NC(=O)[C@H](CCCNC(=N)N)NC(=O)[C@H](CC(N)=O)NC1=O)C(=O)N1CCC[C@H]1C(=O)N[C@@H](Cc1ccc(O)cc1)C(=O)NCC(=O)N[C@@H](CCCCN)C(=O)N2		DA rat pristane-induced arthritis, serum	subcutaneous, 0.1 mg/kg single dose at onset, 21 days	Sodium	131 mmol/L
CC(C)C[C@H](NC(=O)[C@H](CCCCN)NC(=O)[C@H](CCC(=O)O)NC(=O)[C@H](C)NC(=O)[C@@H](NC(=O)[C@H](CCCCN)NC(=O)[C@H](CC(=O)O)NC(=O)[C@H](Cc1ccc(O)cc1)NC(=O)[C@H](Cc1ccccc1)NC(=O)[C@H](C)NC(=O)[C@H](CCCCN)NC(=O)[C@H](CC(C)C)NC(=O)[C@H](Cc1c[nH]c2ccccc12)NC(=O)[C@@H](N)CC(=O)O)C(C)C)C(=O)N[C@@H](CCCCN)C(=O)N[C@@H](CCC(=O)O)C(=O)N[C@@H](C)C(=O)N[C@@H](Cc1ccccc1)C(=O)N1CCC[C@H]1C(=O)N[C@@H](CC(=O)O)C(=O)N[C@@H](Cc1c[nH]c2ccccc12)C(=O)N[C@@H](C)C(=O)N[C@@H](CCCCN)C(=O)N[C@@H](C)C(=O)N[C@@H](C)C(=O)N[C@@H](Cc1ccc(O)cc1)C(=O)N[C@@H](CC(=O)O)C(=O)N[C@@H](CCCCN)C(=O)N[C@@H](C)C(=O)N[C@@H](C)C(=O)N[C@@H](CCC(=O)O)C(=O)N[C@@H](CCCCN)C(=O)N[C@@H](C)C(=O)N[C@@H](CCCCN)C(=O)N[C@@H](CCC(=O)O)C(=O)N[C@@H](C)C(=O)N[C@@H](C)C(=O)O		cynomolgus monkey female, plasma	intravenous infusion, 8 mg/kg every other day, day 27	AUC(0-inf)	573 µg·h/mL
COC(=O)C[C@](O)(CCCC(C)(C)OC(C)=O)C(=O)O[C@@H]1C(OC)=C[C@]23CCCN2CCc2cc4c(cc2[C@H]13)OCO4		CD1 mouse, bone marrow	oral, 1 mg/kg, 0.5 h	tissue concentration	154 ng/mL
CC1=CC=c2ccc3c4c2[N]1[Re](=[C]=O)(=[C]=O)(=[C]=O)([C]#[N+]c1ccc(Cl)cc1)[N]4C(C)=CC=3.O=S(=O)([O-])C(F)(F)F		PBS, up to 1% DMSO	pH 7.4, air-equilibrated	emission maximum	501 nm
C=Cc1c(C)c2cc3nc(c(CC(=O)O)c4[nH]c(cc5nc(cc1[nH]2)C(C)=C5CC)c(C)c4C(=O)O)[C@@H](CCC(=O)NCCCC[C@H](NC(C)=O)C(=O)N[C@@H](Cc1ccccc1)C(=O)N[C@@H](Cc1ccccc1)C(=O)N[C@H](C(=O)N[C@@H](CC(C)C)C(=O)N[C@@H](CCCCN)C(=O)N[C@@H](CO)C(=O)NCC(=O)N[C@@H](CCC(N)=O)C(=O)N[C@@H](Cc1ccc(O)cc1)C(=O)N[C@@H](C)C(=O)N[C@@H](CO)C(=O)N[C@@H](Cc1ccc(O)cc1)C(=O)N[C@@H](Cc1c[nH]cn1)C(=O)N[C@@H](CS)C(=O)N[C@@H](Cc1c[nH]c2ccccc12)C(=O)N[C@@H](CS)C(=O)N[C@@H](Cc1c[nH]c2ccccc12)C(=O)N[C@@H](CCCNC(=N)N)C(=O)N[C@@H](CC(=O)O)C(=O)N1CCC[C@H]1C(=O)NCC(=O)N[C@@H](CCCNC(=N)N)C(=O)N[C@@H](CO)C(=O)NCC(=O)NCC(=O)N[C@@H](CO)C(=O)N[C@@H](CCCCN)C(N)=O)C(C)C)[C@@H]3C	ex vivo fluorescence imaging	4T1 tumour-bearing mice	intravenous, 13 mg/kg	tumour fluorescence duration	168 h
CCCCCCCCCCCCC(=O)O.O=C1CCCC2C3CCCN4CCCC(CN12)C34 (centres unmarked)		water	concentration not given, 298.15 K	limiting apparent molar volume	424.25 ± 0.2 cm³/mol
C/C=C/C=C/C/C=C/CCCCCCCc1cccc(O)c1O		female Kunming mice tumour-bearing, kidneys	intravenous, 10 mg/kg, 1 h	tissue concentration	15700 ± 1450 ng/g
CCOP(=O)(OCC)OCCCCOC(=O)CC1=C(C)/C(=C/c2ccc([S+](C)[O-])cc2)c2ccc(F)cc21 (centres unmarked)		rat, blood	oral, 50 mg/kg, single	Cmax	2 nmol/g

Excerpt of the above:
SMILES	assay	test system	conditions	quantity	result
CCCCCCCCCCCCC(=O)O.O=C1CCCC2C3CCCN4CCCC(CN12)C34 (centres unmarked)		water	concentration not given, 298.15 K	limiting apparent molar volume	424.25 ± 0.2 cm³/mol
C/C=C/C=C/C/C=C/CCCCCCCc1cccc(O)c1O		female Kunming mice tumour-bearing, kidneys	intravenous, 10 mg/kg, 1 h	tissue concentration	15700 ± 1450 ng/g
